Experimental data from different studies.
Compare with care: the assays were run in different laboratories. Values joined by “and” are separate records of one study, mostly repeats; a detail may differ. ± marks the error that the study gave.
Sequence of UniProt Q13418 (whole entry, looked up): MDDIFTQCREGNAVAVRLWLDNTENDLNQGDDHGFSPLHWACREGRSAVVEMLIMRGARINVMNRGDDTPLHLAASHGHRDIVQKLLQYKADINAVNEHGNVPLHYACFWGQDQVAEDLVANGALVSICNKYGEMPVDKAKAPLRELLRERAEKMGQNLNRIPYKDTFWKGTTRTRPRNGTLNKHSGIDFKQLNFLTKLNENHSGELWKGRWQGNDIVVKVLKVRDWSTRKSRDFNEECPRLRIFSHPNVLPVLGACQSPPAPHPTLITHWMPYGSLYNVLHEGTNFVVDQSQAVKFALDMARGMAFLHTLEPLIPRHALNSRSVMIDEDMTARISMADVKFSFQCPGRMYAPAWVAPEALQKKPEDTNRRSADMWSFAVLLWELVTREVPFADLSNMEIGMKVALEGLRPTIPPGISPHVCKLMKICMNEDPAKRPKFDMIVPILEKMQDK

SMILES | tested on | assay | system | conditions | how to read | endpoint | value
C=CC(=O)N1CC[C@H](n2nc(C#Cc3cc(OC)cc(OC)c3)c3c(N)ncnc32)C1 |  |  | human patients | oral, dose not given, QD regimen, adverse drug reaction, added: ferric citrate hydrate |  | ALT increased, any grade | 100%
COc1cc2nccc(Oc3ccc(NC(=O)c4cc5c(n(-c6ccccc6)c4=O)CCCC5=O)nc3)c2cc1OC |  |  | relapsed/refractory AML patients | oral, 6 mg once daily |  | fatal drug-related TEAEs | 0%
CC(C)n1c(C2CCNCC2)nc2c([N+](=O)[O-])c(Br)c(Br)cc21 |  | refers to: Sepsis | AML patients | dose not given, all doses |  | related grade ≥3 adverse events | 1%
CCCCCCCCCCCCCCCC(=O)N[C@@H](CCC(=O)NCCCC[C@H](NC(=O)[C@H](CC(=O)O)NC(=O)[C@H](CO)NC(=O)[C@@H](NC(=O)[C@H](Cc1ccccc1)NC(=O)[C@@H](NC(=O)CNC(=O)[C@H](CCC(N)=O)NC(=O)[C@H](CO)NC(=O)[C@@H](N)Cc1c[nH]cn1)[C@@H](C)O)[C@@H](C)O)C(=O)N[C@@H](CO)C(=O)N[C@@H](CCC(=O)O)C(=O)N[C@@H](Cc1ccc(O)cc1)C(=O)N[C@@H](CC(C)C)C(=O)N[C@@H](CC(=O)O)C(=O)N[C@@H](CO)C(=O)N[C@@H](CCC(=O)O)C(=O)N[C@@H](CCCNC(=N)N)C(=O)N[C@@H](C)C(=O)N[C@@H](CCCNC(=N)N)C(=O)N[C@@H](CC(=O)O)C(=O)N[C@@H](Cc1ccccc1)C(=O)N[C@H](C(=O)N[C@@H](C)C(=O)N[C@@H](Cc1c[nH]c2ccccc12)C(=O)N[C@@H](CC(C)C)C(=O)N[C@@H](CCC(=O)O)C(=O)N[C@@H](C)C(=O)NCC(=O)NCC(=O)O)C(C)C)C(=O)O |  |  | human, CrCl < 20 mL/min | sc, 100 µg single dose |  | injection site bruising | 0%
COc1ccnc(C(=O)N[C@H]2COC(=O)[C@H](Cc3ccccc3)[C@@H](OC(=O)C(C)C)[C@H](C)OC2=O)c1OCOC(=O)C(C)C |  |  | Swiss Lake sand sediment, aerobic dark | 20 °C |  | DT50 whole system | 1.69 days
C[C@]1(O)C[C@@](N)(c2ccc(-c3nc4n(c3-c3ccccc3)COc3ccncc3-4)cc2)C1 |  |  | human, advanced or metastatic solid tumours | 16 mg once daily, phase I dose escalation |  | patients with Rash TEAE | 66.7%
C[C@H]1C[C@@H](N2C(=N)N[C@](C)(c3cccc(NC(=O)c4cccc(C#N)c4)c3Cl)CC2=O)CCO1 |  |  | rat | 1000 mg/kg, every other day |  | triglycerides change | -43%
COc1cc2c(Oc3ccc4[nH]c(C)cc4c3F)ccnc2cc1OCC1(N)CC1 |  |  | paediatric recurrent refractory sarcoma | 10 mg |  | grade 3 Hematuria | 0%
C[C@@H](NC(=O)N1C(=O)[C@H](Cc2ccnc(N)c2)[C@H]1C(=O)O)C1CCCCC1 |  |  | healthy adult Chinese volunteers | continuous intravenous infusion, 2.25 mg/kg/h, 5-day infusion, CTCAE 5.0 grading |  | incidence of grade 3 or higher AEs | 0%
CC(C)[C@H](C(=O)O[C@H](C#N)c1cccc(Oc2ccccc2)c1)c1ccc(Cl)cc1 |  | refers to: CYP2C19 | human, age 6 months |  |  | enzyme contribution to clearance | 2.11%
CO[C@H]1C[C@@H]2CC[C@@H](C)[C@@](O)(O2)C(=O)C(=O)N2CCCC[C@H]2C(=O)O[C@H]([C@H](C)C[C@@H]2CC[C@@H](OC(=O)NCCOCCOCCOCCOCCOCCOCCOCCOCCC(=O)N3CCc4cc(Cn5nc(-c6ccc7oc(N)nc7c6)c6c(N)ncnc65)ccc4C3)[C@H](OC)C2)C[C@@H](O)[C@H](C)/C=C(\C)[C@@H](O)[C@@H](OC)C(=O)[C@H](C)C[C@H](C)/C=C/C=C/C=C/1C |  | phase 1 dose escalation, refers to: gastric haemorrhage | advanced solid tumour patients | intravenous, 16 mg weekly, grade ≥3 |  | dose-reducing adverse events | 25%
COc1ccc(-c2c(-c3ccc(C#N)c(F)c3)nc(N3CCC(N)CC3)n(C)c2=O)cc1F |  | refers to: Pruritus | human patients | oral, dose not given, any grade, dose escalation, NG |  | treatment-related adverse event incidence | 4%
CC(C)C[C@H](NC(=O)[C@H](CCCCN)NC(=O)OCC1c2ccccc2-c2ccccc21)C(=O)N[C@H](C(=O)N[C@@H](Cc1ccccc1)C(=O)N[C@@H](Cc1ccccc1)C(=O)N[C@@H](CCCCN)C(=O)NCC(=O)N[C@@H](Cc1ccccc1)C(=O)N[C@@H](C)C(=O)N[C@@H](Cc1c[nH]c2ccccc12)C(=O)N[C@@H](CC(N)=O)C(=O)N[C@H](C(=O)N[C@H]1CSSC[C@@H](C(=O)N[C@@H](Cc2c[nH]cn2)C(=O)N[C@@H](CCCNC(=N)N)C(=O)N[C@@H](CCCNC(=N)N)C(=O)N[C@@H](C)C(=O)N[C@@H](CC(N)=O)C(N)=O)NC(=O)[C@H](C(C)C)NC(=O)[C@H](CCCNC(=N)N)NC(=O)[C@H](C(C)C)NC(=O)CNC(=O)[C@H](CC(N)=O)NC(=O)[C@H](CCCNC(=N)N)NC(=O)[C@H](Cc2ccc(O)cc2)NC(=O)[C@H](C(C)C)NC1=O)C(C)C)C(C)C |  | HPLC | mouse liver homogenate | 2560 µM, 2.00 h, 50 mg/mL tissue |  | remaining peptide | 54.9% and 51.6% and 53.2%
C[C@H]1CN(c2n[nH]c3nc(N[C@H]4CC[C@H](NS(=O)(=O)CCC(F)(F)F)CC4)ncc23)CCO1 | ILK (Homo sapiens, UniProt Q13418) | inhibitor, Kinobeads competition profiling |  | 0.16 µM | relative to: vehicle | relative abundance | 1.05
CC(C)[C@@H]1NC(=O)CNC(=O)[C@H](CC(N)=O)NC(=O)[C@H](CCCNC(=N)N)NC(=O)[C@H](Cc2ccc(O)cc2)NC(=O)[C@H](C(C)C)NC(=O)[C@@H](NC(=O)[C@@H](NC(=O)[C@H](CC(N)=O)NC(=O)[C@H](Cc2c[nH]c3ccccc23)NC(=O)[C@H](C)NC(=O)[C@H](Cc2ccccc2)NC(=O)CN)C(C)C)CSSC[C@@H](C(=O)N[C@@H](Cc2cnc[nH]2)C(=O)N[C@@H](CCCNC(=N)N)C(=O)N[C@@H](CCCNC(=N)N)C(=O)N[C@@H](C)C(=O)N[C@@H](CC(N)=O)C(N)=O)NC(=O)[C@H](C(C)C)NC(=O)[C@H](CCCNC(=N)N)NC1=O |  |  | ICR mouse, blood | intramammary, 5 mg/kg, day 5, 3 d dosing |  | haemoglobin | 126 ± 5.88 g/L
Cn1cncc1-c1c(F)cncc1NC(=O)c1c(N)nn2cc(F)cnc12 |  |  | human patients | oral, up to 40 mg once daily |  | patients grade ≥3 Hyponatremia | 13%

SMILES | tested on | assay | system | conditions | how to read | endpoint | value
C=CCNc1c(O)cc2c(O)c1C[C@@H](C)C[C@H](OC)[C@H](O)[C@@H](C)/C=C(\C)[C@H](OC(N)=O)[C@@H](OC)/C=C\C=C(/C)C(=O)N2 |  |  | unresectable or metastatic sarcoma | intravenous, 225 mg/m^2, grade 3-4 lab change |  | patients with lipase increase | 0%
CC(=O)c1c(C)c2cnc(Nc3ccc(C4CCN(CCS(C)(=O)=O)CC4)cn3)nc2n(C2CCCC2)c1=O |  |  | beagle dog, female, plasma | oral, 6 mg/kg, day 28, repeated dosing 4 weeks |  | Cmax | 149 ng/mL
CN1CC[C@@H](c2c(O)cc(O)c3c(=O)cc(-c4ccc(C(F)(F)F)cc4Cl)oc23)[C@@H]1CO |  | refers to: Sepsis | relapsed B-cell malignancies or AML | oral, 100 mg, grade 3-4, continuous dosing |  | patients with adverse event | 12.5%
C[C@@H]1COCCN1c1cc(C2([S@](C)(=N)=O)CC2)nc(-c2cc[nH]c3nccc2-3)n1 |  |  | patients, advanced solid tumours | oral, 20 mg twice daily, 17 days, added: carboplatin |  | discontinuation due to adverse event | 0 % patients
CC(C)(C)N1CCC(c2ccccc2)(c2ccccc2)CC1 | Vero-E6 | CellTiter-Glo ATP |  | 72 h, first round 5-point | relative to: DMSO 0%, hyamine -100%, more negative, more toxic | maximum response | -4.25%
O=S(=O)(Nc1ccccc1)c1ccc(NC(=S)Nc2ccccc2)cc1 |  | refers to: Ca | female mouse, blood | oral, 5 mg/kg daily, 14 days |  | blood chemistry level | 10.5 mg/dL
C=CC(=O)Nc1cc(Nc2nccc(Nc3cc(Cl)c(F)cc3C(C)(C)O)n2)c(OC)cc1N1CC[C@@H](N(C)C)C1 |  |  | human | oral, dose not given, phase I clinical |  | patients with adverse event Nausea | 33.3%
C[C@]1(CO)Cc2ncn(-c3ccc(C#N)c(Cl)c3)c2C(=O)O1 |  |  | human, Chinese | 3 mg single dose |  | subjects with drug-related orthostatic hypotension | 0%
O=C(Nc1ccccc1)C1CCN(C(=O)Oc2cccnc2)CC1 |  |  | healthy women | oral, 100 mg, 9 days |  | adverse event Pruritus | 0%
NC(=O)[C@H]1CCN(c2ncnc(N)c2F)C[C@@H]1N1CCC[C@@H](Nc2cc(Cl)cc(C(F)(F)F)c2)C1=O |  |  | B-cell malignancy patients | oral, 328 mg twice daily, dose |  | grade ≥3 lymphopenia | 0%
CN(C(=O)n1cnc(-c2ccc[n+]([O-])c2)c1)C1CCCCC1 |  |  | Wistar rat, pons | oral, 10 mg/kg/day, 24 h, repeated 5 days |  | concentration | 14 ± 0.7 ng/g
O=C1Nc2cc3[nH]nc(-c4ccncc4)c3cc2CN1Cc1ccccc1 |  | CTCAE v4.03 | advanced solid tumour patients | intravenous, 4.8 mg/kg |  | patients with infusion reaction | 0%
CC[C@H](C)[C@H](NC(=O)[C@H](Cc1ccccc1)NC(=O)[C@H](CCC(=O)O)NC(=O)[C@H](CCCNC(=N)N)NC(=O)[C@H](C)NC(=O)[C@H](C)NC(=O)[C@H](CCC(N)=O)NC(=O)[C@H](CCC(=O)O)NC(=O)[C@H](CCC(=O)O)NC(=O)[C@H](CC(C)C)NC(=O)[C@H](Cc1ccc(O)cc1)NC(=O)[C@H](CO)NC(=O)[C@H](CO)NC(=O)[C@@H](NC(=O)[C@H](CC(=O)O)NC(=O)[C@H](CO)NC(=O)[C@@H](NC(=O)[C@H](Cc1ccccc1)NC(=O)[C@@H](NC(=O)CNC(=O)[C@H](CCC(=O)O)NC(=O)[C@H](C)NC(=O)CCc1cnc[nH]1)[C@@H](C)O)[C@@H](C)O)C(C)C)C(=O)N[C@@H](C)C(=O)N[C@@H](Cc1c[nH]c2ccccc12)C(=O)N[C@@H](CC(C)C)C(=O)N[C@H](C(=O)N[C@@H](CCCNC(=N)N)C(=O)NCC(=O)N[C@@H](CCCNC(=N)N)C(=O)N[C@@H](CCCCNC(=O)COCCOCCNC(=O)COCCOCCNC(=O)CC[C@H](NC(=O)CCCCCCCCCCCCCCCCC(=O)O)C(=O)O)C(=O)NCC(=O)NCC(=O)N[C@@H](CO)C(=O)N[C@@H](CCCCNC(=O)[C@H](CCCCNc1c(NCCCCCN(O)C(=O)CCC(=O)NCCCCCN(O)C(=O)CCC(=O)NCCCCCN(O)C(C)=O)c(=O)c1=O)Nc1c(NCCCCCN(O)C(=O)CCC(=O)NCCCCCN(O)C(=O)CCC(=O)NCCCCCN(O)C(C)=O)c(=O)c1=O)C(=O)O)C(C)C [zirconium-89 labelled] |  | ex vivo gamma counting | Sprague-Dawley rat, male, heart | intravenous, 1 nmol, 24 h |  | tissue uptake | 0.222 %ID/g and 0.19 %ID/g and 0.204 %ID/g and 0.177 %ID/g and 0.216 %ID/g
CCC[C@@](N)(CO)CCc1ccc(OCCCCCC(C)C)cc1 |  |  | hound dogs, male | intravenous, 0.25 mg/kg, geometric mean |  | volume of distribution (Vz) | 31.2 L/kg
CC(C)Nc1ccnc(Nc2cccc(-c3cccnc3)c2)n1 |  | refers to: total protein | mouse, blood | intraperitoneal, 3 mg/kg |  | blood chemistry | 5.1 g/dL
COc1ccc(Nc2nc(Nc3ccc(OC)cc3OC)nc(N3CCOCC3)n2)c(OC)c1 | Vero-E6 | CellTiter-Glo ATP |  | 72 h, retest 8-point duplicates | relative to: DMSO 0%, hyamine -100%, more negative, more toxic | maximum response | -18.2%
